Published values pooled from the literature.
Every numbered part comes from another study and shows a few of its results, in no order.

Set 1
Target: Interferon regulatory factor 7, full length, phosphomimetic (IRF7, Homo sapiens, UniProt Q92985, residues 1-503, S101K/S471D/S472D/S475D/S476D/S477D/S483D/S484D/S487D)
Method: protein-binding microarray
Molecule type: double-stranded DNA, one strand shown
Matrix: in vitro
Concentration: 250 nM
Setting: 60-bp whole probe
Together with: salmon DNA 0.4 mg/ml
Baseline: random background probes
Direction: higher = stronger binding
Shared flanks, not repeated: GCCTAGCAC … GTCTTGATTCGCTTGACGCTGCTG
Residues (chain): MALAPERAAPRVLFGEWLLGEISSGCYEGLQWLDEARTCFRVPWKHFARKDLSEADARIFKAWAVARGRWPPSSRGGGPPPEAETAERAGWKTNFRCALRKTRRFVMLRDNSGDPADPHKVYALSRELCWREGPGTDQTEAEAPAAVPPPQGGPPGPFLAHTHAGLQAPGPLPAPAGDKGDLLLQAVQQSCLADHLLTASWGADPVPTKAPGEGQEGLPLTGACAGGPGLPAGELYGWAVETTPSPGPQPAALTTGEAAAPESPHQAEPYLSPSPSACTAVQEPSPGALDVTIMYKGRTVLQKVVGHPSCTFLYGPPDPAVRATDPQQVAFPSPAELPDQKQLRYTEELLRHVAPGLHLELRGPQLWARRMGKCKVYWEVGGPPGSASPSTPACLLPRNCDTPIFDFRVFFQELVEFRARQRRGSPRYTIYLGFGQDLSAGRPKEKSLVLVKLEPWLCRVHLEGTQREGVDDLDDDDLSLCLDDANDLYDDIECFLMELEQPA
`TTAGAACTGGGGTCTCGATTAGTGCTA` gave a log fluorescence of 0.317 z-score.
With `TTAGGACTGGGTACTGGGTTAGTGCTA` the log fluorescence was -0.235 z-score.
For `GTAGGTCTCCTACTGCTTTAGTGCTAG`, the log fluorescence was -0.524 z-score.
For `TCAAATTTGAGTCACTGACTGTGCTAG`, the log fluorescence was 0.0894 z-score.
`TTAGATATCAGACTGCATTAGTGCTAG` gave a log fluorescence of 0.106 z-score.
`TTAGGTTTCGGTCGCGGTTAGTGCTAG` has a log fluorescence of 3.98 z-score.
`TCACTTTTTTGTTCCACACTGTGCTAG` gave a log fluorescence of 1.24 z-score.
For `TTAAGTCTCCTACTGCTTTAGTGCTAG`, the log fluorescence was -0.0875 z-score.
With `TTTGATATCGGGACTGGATTAGTGCTA` the log fluorescence was -0.171 z-score.
The log fluorescence of `TCATGCTTCTGTATGGGACTGTGCTAG` is reported as -0.129 z-score.
`TTACGTTCCCTTTTCCTTTAGTGCTAG` gave a log fluorescence of 3.11 z-score.
`TTAGGACAGCTTCTCCTTTAGTGCTAG` has a log fluorescence of 0.234 z-score.
`GACGGTTTCGACTTTCAGGACGTGCTA` gave a log fluorescence of 10.9 z-score.
`TGCTGTGTGCATCTATCTTAGTGCTAG` has a log fluorescence of -1.29 z-score.
With `TTAGGTATCATTTTCCTTTAGTGCTAG` the log fluorescence was 1.78 z-score.
With `GACGGTATCTTTATCCTGACGTGCTAG` the log fluorescence was -0.012 z-score.
For `GACGATATCGGGATTCGAGACGTGCTA`, the log fluorescence was 0.139 z-score.
For `TTAGAACTGAGTTTCGAATAGTGCTAG`, the log fluorescence was 3.26 z-score.
`GACGGTATCCTTGTCCTGACGTGCTAG` gave a log fluorescence of -0.16 z-score.
`TTAGTTATCGGGTTTCGATTAGTGCTA` gave a log fluorescence of 7.04 z-score.
`TTAGATTTCGGTTATCGATTAGTGCTA` has a log fluorescence of 2.74 z-score.
The log fluorescence of `TCAATTTTCACGGTGGGACTGTGCTAG` is reported as 0.276 z-score.
`GACGGACTGGGTCTCGTGACGTGCTAG` has a log fluorescence of -0.547 z-score.
`TGAGGACTGGGTTTCGGTTAGTGCTAG` gave a log fluorescence of 6.25 z-score.
The log fluorescence of `TCACTCTTCTGCTTCCTACTGTGCTAG` is reported as 0.712 z-score.

Set 2
Target: RNA binding protein fox-1 homolog 2, RRM domain, GST-SBP tag (RBFOX2, Homo sapiens, UniProt O43251-10, residues 100-194)
Method: RNA Bind-n-Seq
Molecule type: RNA
Matrix: in vitro
Concentration: 365 nM
Setting: natural RNA segment, single round, ends assumed
Baseline: no-protein control
Direction: higher = stronger binding
Construct (chain): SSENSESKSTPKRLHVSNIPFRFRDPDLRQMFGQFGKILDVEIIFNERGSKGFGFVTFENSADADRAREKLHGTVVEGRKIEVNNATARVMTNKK
`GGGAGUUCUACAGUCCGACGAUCGCCAUCAAGUUACGGACAAGGAUUCACAGUGUGCCUGGCUGAUGUCAAUAUUUUCUCAUGUUAAUAAUAUUUAUGUUGGGUCAUCUGUUAGGUCAAUAACUAUAUUUUUAUGGAAUUCUCGGGUGCCAA`: “RBNS enrichment (R)” 0.704.
`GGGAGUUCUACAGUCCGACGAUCAGGAGAGUGGUCUGUAAGCUCCAUCAGCCCUGUCCUGAGACAGCAGGGGGGAAGGACACUGGAGACUUUCUUGUGGGGCUUACUUAGCCUUCUGGUUACAGACUAUUUCCUGGAAUUCUCGGGUGCCAA`: “RBNS enrichment (R)” 0.701.
For `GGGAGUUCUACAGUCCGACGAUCCCAAAAGUCUUCCAUGAAAUGUAGCAGAGUUUCUGUCUGCCCUGCAUUACCUGCCAGCGAGUCAAGGUAGGGGAUCCAGCAAACGGUUUUGGGAAUUCAGACUGUGGAAAUGGAAUUCUCGGGUGCCAA`, “RBNS enrichment (R)” read 0.776.
`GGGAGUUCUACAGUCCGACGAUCCAGAACUGAGGGGCUGGCCCCAGGCAGCUCCCAGGGGGUAGAACGGCCCUGUGCUUAAGACACUCCUGCUGCCCCGUCUGAGGGUGGCAAUUAAAGUUGCUUCACAUCCUUGGAAUUCUCGGGUGCCAA`: “RBNS enrichment (R)” 0.289.
Under “RBNS enrichment (R)”, `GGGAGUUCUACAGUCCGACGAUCUCAAGAGAUUGCCACUCUCAUAGGUAAACAUGAGGAAAACAGGAAAAGUUUGCUUCUUUUUAUUGAUGGUUCCAAAGAAACAAACCAAAUCUACCAGCUCUUGGAUGAAGUGGAAUUCUCGGGUGCCAA` is recorded as 0.339.
`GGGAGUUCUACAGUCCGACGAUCUUAUUUUUUUUAUUAUUAAAUGAUGUGGUCUAUGGAAAAAUAAAAAUCUGACUUAGUUUUGACUAGCUUUGAGUGCCUUUCCUUGGGAAGAGUUUGGGUGAAAGGGGAAGUGGAAUUCUCGGGUGCCAA` — result for “RBNS enrichment (R)”: 0.659.
`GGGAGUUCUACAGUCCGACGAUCCUCCCUUCUGUCUAGAUUCACUUCAGUUUAUUGUUGGGAACUGUGCAGGUCCAAGACCUGGACUCCUGCUUCAGCCCAGGCCAGUACUCCUUGUCUGAGGUGAAAGCCUUUGGAAUUCUCGGGUGCCAA`: “RBNS enrichment (R)” 0.253.
`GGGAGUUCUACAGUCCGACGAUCCAAGCCCUCCUUCUCACAUAGCAACAGCAUCCACCUACAGAAGCAGCCCCUCAGUGUAGCCACUUCACCACCCUGUGCACCCUAAGUGACUUUUGAUUCCUUGAACCUUUUGGAAUUCUCGGGUGCCAA` — result for “RBNS enrichment (R)”: 1.21.
`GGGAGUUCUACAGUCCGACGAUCUGGCCAAAAGCCCCGUAUCAAACUGCCAUUUCUUCCGGUUUCUGUGGACCUUGUGGCCAGGUGCUCUUCCCGAGCCACAGGUGUUCUGUGAGCUUGCUUGUGUGUGUGUGUGGAAUUCUCGGGUGCCAA` — result for “RBNS enrichment (R)”: 0.943.

Set 3
Target: Ras GTPase-activating protein-binding protein 1, full length (G3BP1, Homo sapiens, UniProt Q13283)
Sequence of UniProt Q13283 (whole entry, looked up): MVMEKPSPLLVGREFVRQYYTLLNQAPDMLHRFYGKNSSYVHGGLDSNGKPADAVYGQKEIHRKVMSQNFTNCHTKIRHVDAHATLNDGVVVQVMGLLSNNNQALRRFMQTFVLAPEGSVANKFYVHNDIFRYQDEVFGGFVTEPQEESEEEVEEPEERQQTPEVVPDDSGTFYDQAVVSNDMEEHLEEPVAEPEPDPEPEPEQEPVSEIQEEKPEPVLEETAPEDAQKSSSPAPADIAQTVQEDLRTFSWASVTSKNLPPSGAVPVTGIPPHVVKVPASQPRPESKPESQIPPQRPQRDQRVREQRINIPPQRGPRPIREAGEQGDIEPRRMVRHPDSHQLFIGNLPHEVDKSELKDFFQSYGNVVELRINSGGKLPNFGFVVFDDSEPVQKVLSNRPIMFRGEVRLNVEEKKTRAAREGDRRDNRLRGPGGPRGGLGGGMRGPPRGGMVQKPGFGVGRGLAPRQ
Method: RNA Bind-n-Seq
Molecule type: RNA
Matrix: in vitro
Concentration: 200 nM
Setting: whole 134-nt RNA, ends assumed
Together with: 150 mM KCl
Baseline: input library
Direction: higher = stronger binding
`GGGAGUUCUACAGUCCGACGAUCUUCCAACAGUUAUGGGAUCCCAGAACCUGCUCAUGCAUACGCUCAACCUCAGACCACAACUCCUCUACCUGCAGUUUCCGGUUCUCCUGGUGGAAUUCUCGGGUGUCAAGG` has a log2 enrichment of 0.259.
With `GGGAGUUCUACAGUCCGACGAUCUCAAGUCCUGUGCUACACAUCGUAUGUACCGAAUCGGUUUUUUUGGAGGUUUGGAAAGUAUUAUGUUACGCCGUUCGGAUCUGCACUUCCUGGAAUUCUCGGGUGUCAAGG` the log2 enrichment was -0.942.
`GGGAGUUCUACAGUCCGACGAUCGCAGGAAGUAAAAACAAAUGGAAAUGCUUCGGAUAGUGGCAGGGGUGGGGGUUGCUAAGGAAAGGGUGGGAUGGGAGUGGGUAAGGAGUUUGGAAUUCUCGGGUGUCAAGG` has a log2 enrichment of 0.713.
`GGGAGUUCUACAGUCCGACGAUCUUGGAGGUGGAUUUUGUUUAUUUUUUUAGCUCAUUUCCAGGGGUGGGAAUUUUUUUUUAAUAUGUGUCAUGAAUAAAGUUGUUUUUGAAAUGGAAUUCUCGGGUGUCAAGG` gave a log2 enrichment of -0.895.
`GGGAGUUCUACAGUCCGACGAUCGUCCUGUGCUACACAUCGUAUGUACCGAAUCGGGGAAAAAGGGAAAAAGGGGAAAAAGGAAAGUAUUAUGUUACGCCGUUCGGAUCUGCAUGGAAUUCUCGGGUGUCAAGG` has a log2 enrichment of -0.36.
`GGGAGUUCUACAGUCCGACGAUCUGGCCCUGGUGGCAUGCGGGGAGGAAGAGGUGGCCUCAUGGAUUGUGGUGGUCCCGGUGGAAUGUUCAGAGGUGGCCGUGGUGGAGACAGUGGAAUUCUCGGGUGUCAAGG` gave a log2 enrichment of 0.96.
The log2 enrichment of `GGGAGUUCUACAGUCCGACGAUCUCAAGUCCUGUGCUACACAUCGUAUGUACCGAAUCGGUGGAAAAAAAGGUUUGGAAAGUAUUAUGUUACGCCGUUCGGAUCUGCACUUCCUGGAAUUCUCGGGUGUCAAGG` is reported as -1.06.
With `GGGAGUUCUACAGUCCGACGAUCCACAGACAACACGCACCCACACAGUCACAGAGGGAAGGGGUUGGGAUGGGGACAGGGUGCACAGCAGGGCGGGGUAGGACCCCAGCCCCUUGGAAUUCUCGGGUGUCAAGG` the log2 enrichment was 1.86.
For `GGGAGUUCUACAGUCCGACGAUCAAGUCCUGUGCUACACAUCGUAUGUACCGAAUCGGGUGGGUUUGGGAAAAAAAGGGAAAGUAUUAUGUUACGCCGUUCGGAUCUGCACUUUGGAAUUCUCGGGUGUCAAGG`, the log2 enrichment was -0.113.
With `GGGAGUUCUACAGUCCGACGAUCUUAGAAGAACCCGAAGAACCUAAAGUGCUAACACCAGAAGAACAAUUAGCAGAUAAACUGCGGCUAAAGAAAUUACAGGAAGAGUCAGACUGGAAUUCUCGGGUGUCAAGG` the log2 enrichment was 0.54.

Set 4
Target: Histone acetyltransferase KAT6A, both winged helices, GST fusion (KAT6A, Homo sapiens, UniProt Q92794, residues 1-181)
Method: protein binding microarray
Molecule type: double-stranded DNA, one strand shown
Matrix: in vitro
Concentration: not given
Setting: 8-mer, flanks averaged, mean of 2 arrays, mostly near background
Baseline: not given
Direction: higher = stronger binding
Residues (chain): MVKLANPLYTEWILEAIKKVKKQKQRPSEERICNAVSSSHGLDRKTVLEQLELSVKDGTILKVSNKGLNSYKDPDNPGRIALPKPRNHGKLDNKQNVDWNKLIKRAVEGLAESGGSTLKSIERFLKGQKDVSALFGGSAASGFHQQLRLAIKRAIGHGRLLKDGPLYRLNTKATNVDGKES
`ATCTGAGC` gave an E-score of 0.0229.
With `AACGGAGG` the E-score was 0.0677.
`ATGGGGGC` has an E-score of -0.194.
With `AGCTATCC` the E-score was -0.168.
For `TATAACCA`, the E-score was -0.0934.
`CTTTGGTA` gave an E-score of -0.0465.
For `AATGCCCG`, the E-score was 0.159.
`CATATCCG` gave an E-score of 0.0889.
For `ATGCAGGG`, the E-score was -0.16.
`CCCTGTCA` gave an E-score of -0.179.
For `AACTACAA`, the E-score was 0.00186.
The E-score of `GAGACGGC` is reported as 0.232.
The E-score of `CCTATCGA` is reported as -0.127.
`ATGCTATC` has an E-score of -0.000105.
`AGTGTATA` has an E-score of -0.0343.
The E-score of `AGAGCCTA` is reported as -0.199.
`AGCCGTGC` gave an E-score of 0.23.
`ACTTGCTC` has an E-score of -0.346.
For `TATGGTGA`, the E-score was -0.0408.
`CTGCGAAC` gave an E-score of -0.0495.
`TGATGACA` has an E-score of -0.108.
`GGCTGAAA` gave an E-score of 0.00413.
For `CTACTACA`, the E-score was -0.0162.
`AGAGGCTC` has an E-score of -0.106.
`GACTCTTA` gave an E-score of -0.195.
